Measured values of several laboratories.
Compare with care: the assays were run in different laboratories. ± marks the error that the study gave.
UniProt Q8NB78, sequence (whole entry, looked up): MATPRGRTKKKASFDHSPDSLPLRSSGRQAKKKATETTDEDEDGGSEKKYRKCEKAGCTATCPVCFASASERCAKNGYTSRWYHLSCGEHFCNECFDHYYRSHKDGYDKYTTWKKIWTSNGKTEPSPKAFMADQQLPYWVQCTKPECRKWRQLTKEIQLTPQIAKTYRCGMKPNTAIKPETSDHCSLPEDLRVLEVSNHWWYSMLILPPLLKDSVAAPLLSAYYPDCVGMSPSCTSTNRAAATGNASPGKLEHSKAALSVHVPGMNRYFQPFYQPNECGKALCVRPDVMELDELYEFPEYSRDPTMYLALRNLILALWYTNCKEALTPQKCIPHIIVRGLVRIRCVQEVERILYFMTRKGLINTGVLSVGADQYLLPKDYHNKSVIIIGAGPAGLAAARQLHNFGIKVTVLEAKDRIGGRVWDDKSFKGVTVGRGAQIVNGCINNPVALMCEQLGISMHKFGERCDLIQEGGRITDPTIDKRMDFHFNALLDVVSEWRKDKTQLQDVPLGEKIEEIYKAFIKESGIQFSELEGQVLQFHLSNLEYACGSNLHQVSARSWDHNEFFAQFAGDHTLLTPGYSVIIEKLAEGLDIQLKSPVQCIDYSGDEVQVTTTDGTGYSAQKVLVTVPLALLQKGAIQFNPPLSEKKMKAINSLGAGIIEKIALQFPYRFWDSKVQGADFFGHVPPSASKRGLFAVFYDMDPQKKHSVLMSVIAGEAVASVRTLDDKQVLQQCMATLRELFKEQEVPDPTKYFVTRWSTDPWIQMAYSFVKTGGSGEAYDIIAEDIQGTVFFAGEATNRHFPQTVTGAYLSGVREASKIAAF

CC1(CCCCCCCCCCCCCCOCCCOP(=O)(O)CO[C@H](CO)Cn2ccc(N)nc2=O)COC1  EC50 (human gammaherpesvirus 8; qPCR; BCBL-1; 7 days): 0.03 ± 0.01 µM
CO[C@H]1C[C@@H](C)C/C(C)=C/[C@@H](CC=CC(=O)NC(C)(C)C)C(=O)C[C@H](O)[C@@H](C)[C@@H](/C(C)=C/[C@@H]2CC[C@@H](O)[C@H](OC)C2)OC(=O)[C@@H]2CCCCN2C(=O)C(=O)[C@]2(O)O[C@H]1[C@@H](OC)C[C@H]2C  EC50 (Human coronavirus NL63; viral replication, inhibitor, qPCR; Caco-2; 48 h): 4.2 µM
COc1ccc(-n2c(SCc3ccncc3)nnc2[C@H](Cc2ccccc2)NC(=O)Cc2c(C)[nH]c3ccccc23)cc1  EC50 (HIV-2; HIV-2-induced cytopathicity, MTT; MT-4, wild type): 4.27 ± 1.67 µM
CC(C)C[C@H](NC(=O)[C@H](CO)NC(=O)[C@H](CCCNC(=N)N)NC(=O)[C@H](CC(=O)O)NC(=O)[C@H](CCC(=O)O)NC(=O)[C@H](C)NC(=O)[C@@H]1CCCN1C(=O)[C@H](C)NC(=O)[C@H](CCC(=O)O)NC(=O)[C@@H]1CCCN1C(=O)[C@@H]1CCCN1)C(N)=O  HVA level reduction (dopamine system; rhesus monkey, contralateral caudate nucleus; intranasal, dose not given, repeated dose escalation; reference: vehicle): 24%
C=CCSc1nnc([C@H](Cc2ccccc2)NC(=O)Cc2c(C)[nH]c3ccccc23)n1-c1ccc(OC)cc1  EC50 (HIV-2; HIV-2-induced cytopathicity, MTT; MT-4, wild type): 3.94 ± 1.17 µM
COc1cc(CNC(=O)C[C@H](C)CCC=C(C)C)ccc1OCc1cn(-c2cccc([N+](=O)[O-])c2)nn1  growth percent (MDA-MB-435 melanoma cells; SRB; 10 µM, 48 h): 99.5%
CC(C)OC(=O)[C@H](Cc1ccccc1)NP(=O)(COCCn1cnc2c(=O)[nH]c(=O)[nH]c21)N[C@@H](Cc1ccccc1)C(=O)OC(C)C  EC50 (herpes simplex virus 2; cytopathic effect; HEL, G): > 100 µM
Brc1ccc(-c2c[nH]c(-c3ccccn3)n2)cc1  EC50 (Schistosoma mansoni; worm killing; female worms; no effect): > 100 µM
COc1ccc(-n2c(SCCN3CCOCC3)nnc2[C@H](Cc2ccccc2)NC(=O)Cc2c(C)[nH]c3ccccc23)cc1  EC50 (HIV-2; HIV-2-induced cytopathicity, MTT; MT-4, wild type): 4.98 ± 2.08 µM
CCOC(=O)[C@@H](C)NP(=O)(CO[C@H](CF)CN1CNC(N)=NC1=O)N[C@H](C)C(=O)OCC  EC50 (herpes simplex virus 2; cytopathic effect; HEL, G, TK+): > 100 µM
COc1ccc(CCCN[C@H]2CCC[C@@H]2CN[C@H]2CCC[C@@H]2CNCCCCN[C@@H]2CCC[C@H]2CN)cc1  Ki (KDM1B (Homo sapiens, UniProt Q8NB78); enzyme activity, inhibitor): 4.5 µM
[64Cu+2].c1cnc(CNCc2ccc(CN3CCCN4CCNCCCN(CC4)CC3)cc2)nc1  tumour-to-blood ratio (CXCR4; NOD/SCID mouse, U87 and U87-stb-CXCR4 xenografts; iv, 90 min, no blocking dose; reference: U87-stb-CXCR4 tumour over blood): 28.1 ± 4.78
CC1(CCCCCCCCCCCCOCCCOP(=O)(O)CO[C@H](CO)Cn2ccc(N)nc2=O)COC1  EC50 (human gammaherpesvirus 8; qPCR; BCBL-1; 7 days): 0.03 ± 0.01 µM
CCOC(=O)[C@@H](C)NP(=O)(CO[C@H](CF)Cn1cnc(N)nc1=O)N[C@H](C)C(=O)OCC  EC50 (herpes simplex virus 2; cytopathic effect; HEL, G, TK+): > 100 µM
COc1ccc(-n2c(SCc3ccc(S(N)(=O)=O)cc3)nnc2[C@H](Cc2ccccc2)NC(=O)Cc2c(C)[nH]c3ccccc23)cc1  EC50 (HIV-2; HIV-2-induced cytopathicity, MTT; MT-4, wild type): 3.42 ± 1.93 µM
O=C(O)c1ccc(Cn2c(=O)n(Cc3ccc(C(=O)NCC4COC4)cc3)c(=O)c3ccccc32)cc1  EC50 (human respiratory syncytial virus; cytopathic effect; HEp-2, Long): > 50 µM
COc1ccc(-c2nc(-c3ccccc3OC)[nH]c2-c2ccc(OC)cc2)cc1  EC50 (Schistosoma mansoni; worm killing; male worms): > 100 µM
CCCCCCC[C@@H](CC(=O)O)OC(=O)C[C@@H](CCCCCCC)O[C@@H]1O[C@@H](C)[C@H](O)[C@@H](O)[C@H]1O  EC50 (Aliivibrio fischeri; bioluminescence reduction, Microtox; 5 min): 87.5 ± 14.5 µM
NS(=O)(=O)Nc1ncnc(OCCOc2ncc(Br)cn2)c1-c1ccc(Br)cc1  Km (M6 formation; female Beagle dog, liver microsomes; 50 mg/kg daily for 4 weeks): 7.2 ± 1 µmol/L
Nc1ccn(C[C@@H](CO)OCP(=O)(O)OCCCS(=O)(=O)CCCCCCCCCCCCCC2CCC2)c(=O)n1  EC50 (human gammaherpesvirus 8; qPCR; BCBL-1; 7 days): 0.01 ± 0.01 µM
COc1cc(CNC(=O)C[C@H](C)CCC=C(C)C)ccc1OCc1cn(-c2ccccc2[N+](=O)[O-])nn1  growth percent (RXF 393; SRB; 10 µM, 48 h): 55.9%
COc1ccc(-n2c(SCCF)nnc2[C@H](Cc2ccccc2)NC(=O)Cc2c(C)[nH]c3ccccc23)cc1  EC50 (HIV-2; HIV-2-induced cytopathicity, MTT; MT-4, wild type): 4.07 ± 0.87 µM
